Results of several laboratories.
Each line is one published result; not all experiments were run side by side.
Cell line: KM12

| Compound | test | setting | scale | endpoint | value |
| --- | --- | --- | --- | --- | --- |
| COc1cc(CNC(=O)C[C@H](C)CCC=C(C)C)ccc1OCc1cn(-c2ccc(F)cc2)nn1 | SRB | 10 µM, 48 h |  | growth percent | 96.4% |
| CC/C=C\C/C=C\C/C=C\C/C=C\C/C=C\C/C=C\CCC(=O)Nc1ccn(C2OC(CO)C(O)C2(F)F)c(=O)n1 (stereo not shown) | NCI60 screen |  |  | TGI | 20.2 µM |
| COc1cc(CNC(=O)C[C@H](C)CCC=C(C)C)ccc1OCc1cn(-c2ccccc2F)nn1 | SRB | 10 µM, 48 h |  | growth percent | 99.3% |
| COc1ccc(C2=Nn3c(NN=C4C(=O)N(C)c5ccc(Br)cc54)nnc3SC2)cc1 | cell growth or viability, SRB | 10 µM |  | inhibition | 18% |
| CC(=C(c1ccc(O)cc1)c1ccc(Cl)cc1)c1ccc(Cl)cc1 | cell growth or viability, SRB |  |  | GI50 | 0.58 µM |
| COc1ccc2c(c1)/C(=N\Nc1nnc3n1N=C(c1ccccc1)CS3)C(=O)N2 | cell growth or viability, SRB | 10 µM |  | inhibition | 40% |
| CC(=O)OC[C@H]1O[C@@H](Sc2sc(C(=O)c3ccc(C)cc3)c(N)c2-c2nc3ccccc3s2)[C@H](OC(C)=O)[C@@H](OC(C)=O)[C@@H]1OC(C)=O | SRB | 10 µM, 48 h | reference: untreated | growth | 69% |
| CC(Cc1ccc(Cl)cc1)=C(c1ccc(Cl)cc1)c1ccc(OCCN(C)C)cc1 | cell growth or viability, SRB |  |  | GI50 | 4.16 µM |
| CC(=O)OC[C@H]1O[C@@H](Sc2sc(C(=O)c3ccc(Br)cc3)c(N)c2-c2nc3ccccc3s2)[C@H](OC(C)=O)[C@@H](OC(C)=O)[C@H]1OC(C)=O | SRB | 10 µM, 48 h | reference: untreated | growth | 106% |
| COc1cc(CNC(=O)C[C@H](C)CCC=C(C)C)ccc1OCc1cn(-c2ccccc2)nn1 | SRB | 10 µM, 48 h |  | growth percent | 96% |

Some of these lines once more:
| Compound | test | setting | scale | endpoint | value |
| --- | --- | --- | --- | --- | --- |
| CC(Cc1ccc(Cl)cc1)=C(c1ccc(Cl)cc1)c1ccc(OCCN(C)C)cc1 | cell growth or viability, SRB |  |  | GI50 | 4.16 µM |
